Measurements pooled from the literature.
Numbers after ± are the reported error.

The Cmax of `CC(=O)N[C@H](CC(=O)O)C(=O)N[C@H](Cc1c[nH]c2ccccc12)C(=O)N[C@H](Cc1ccccc1)C(=O)N[C@H](CCCCN)C(=O)N[C@H](C)C(=O)N[C@H](Cc1ccccc1)C(=O)N[C@H](Cc1ccc(O)cc1)C(=O)N[C@H](CC(=O)O)C(=O)N[C@H](CCCCN)C(=O)N[C@@H](C(=O)N[C@H](C)C(=O)N[C@H](CCC(=O)O)C(=O)N[C@H](CCCCN)C(=O)N[C@H](Cc1ccccc1)C(=O)N[C@H](CCCCN)C(=O)N[C@H](CCC(=O)O)C(=O)N[C@H](C)C(=O)N[C@H](Cc1ccccc1)C(N)=O)C(C)C` is reported as 2.27 ng/mL (statin-treated high-risk CHD men, plasma; oral, 100 mg daily, day 13, 0 to 8 h, mean, undetectable set to 0).
`Cn1c(=O)oc2ccc(-c3ccc(CC(C#N)NC(=O)C4CNCCCO4)c(F)c3)cc21` (centres unmarked) — result for “treatment-related adverse event incidence”: 3.7% (item: acne; human volunteers; oral, dose not given).
For `CCCC[C@@H]1NC(=O)[C@@H](NC(=O)[C@H](CCC(=O)O)NC(=O)CNC(=O)CN2CCN(CC(=O)O)CCN(CC(=O)O)CCN(CC(=O)O)CC2)CCCCNC(=O)C[C@@H](C(N)=O)NC(=O)[C@H](C(C)C)NC(=O)[C@@H]2CCCN2C(=O)[C@H](CCCNC(=N)N)NC(=O)CNC(=O)[C@H](Cc2c[nH]c3ccccc23)NC(=O)[C@H](CCCNC(=N)N)NC(=O)[C@@H](Cc2ccccc2)NC(=O)[C@H](Cc2c[nH]cn2)NC(=O)[C@H](CCC(=O)O)NC1=O` [gallium-67 labelled], the tissue uptake was 0.13 ± 0.07 %ID/g (normal C57 mice, blood; intravenous, 0.037 MBq/mouse, 2 h).
With `CCC(CC)[C@H](NC(C)=O)[C@@H]1[C@H](O)[C@@H](C(=O)N[C@H](C(=O)O)[C@@H](C)CC)C[C@H]1NC(=N)N` the t1/2 was 8.3 ± 0.1 h (rat, Sprague-Dawley, liver homogenate; 100 µg/mL, pH 7.4, 37 °C).
`CC(C)[C@H](NC(=O)CNC(=O)[C@H](CCC(N)=O)NC(=O)[C@H](C)N)C(=O)O` — result for “volume of distribution”: 33 L/kg (human male, plasma; intravenous infusion, 30 mg/kg single, 15 min infusion, geometric mean).
The AUC(0-inf) of `O=C(Cc1ccc(OCc2ccccc2)cc1)NC1(C(=O)O)CCN(C(=O)c2ccc(-c3cccc(Cl)c3)cc2)CC1` is reported as 6610 ng·h/mL (BALB/c mice female; intraperitoneal, 20 mg/kg).
For `O=C(Nc1nccs1)C(c1cc(F)ccc1O)N1Cc2ccccc2C1=O` (centres unmarked), the CL/F was 633 mL/min/kg (female FVB mouse, plasma; oral, 20 mg/kg, single dose).
`CN(CCCN=Cc1ccccc1[O-])CCN(C)CCCN=Cc1ccccc1[O-].[67Ga+3]`: “tissue uptake ratio” 1.13 ± 0.09 (rat; intravenous, 1 min; reference: heart over liver).
With `CCCCCCCCCCCCCCCC(=O)N[C@@H](CCCCN)C(=O)N[C@@H](CCCCN)C(=O)N[C@@H](CO)C(=O)N[C@@H](CCCNC(=N)N)C(=O)N[C@@H](C)C(=O)N[C@@H](CC(C)C)C(=O)N[C@@H](Cc1ccccc1)C(N)=O` the Cmax was > 200 µM (cynomolgus monkeys, both sexes, plasma; intravenous infusion, 1 h, doses up to 30 mg/kg).
`CN1CCC[C@]1(C)/C=C/S(=O)(=O)NC(=O)Nc1c2c(cc3c1CCC3)CCC2`: “Tmax after second dose, median” 2.1 h (human, plasma; oral, 50 mg twice daily, day 14, multiple ascending dose).
With `CC(C)[C@H](NC(=O)[C@@H]1CCCN1C(=O)[C@H](CCCNC(=N)N)NC(=O)[C@H](CS)NC(=O)[C@H](Cc1c[nH]c2ccccc12)NC(=O)[C@H](CCCNC(=N)N)NC(=O)[C@@H](Cc1ccccc1)NC(=O)[C@H](Cc1c[nH]cn1)NC(=O)[C@H](CCC(=O)O)NC(=O)[C@H](CS)NC(=O)[C@H](CS)NC(=O)[C@@H]1CC(=O)N[C@@H](CCCNC(=N)N)C(=O)NCC(=O)N[C@@H](CC(=O)O)C(=O)N[C@H](Cc2ccc(O)cc2)C(=O)N1)C(N)=O` [technetium-99m labelled] the tissue uptake was 0.02 ± 0.02 %ID/g (C57 mouse, female, B16/F1 melanoma, brain; intravenous, 0.037 MBq, 24 h).
For `COc1cc(N(C)CCN(C)C)c(NC(=O)CCSCC(NC(C)=O)C(=O)O)cc1Nc1nccc(-c2cn(C3CC3)c3ccccc23)n1` (centres unmarked), the excreted amount was 1.11% (radio-HPLC; human, feces; 0 to 48 h, sample holds 45.32% dose; reference: dose).
The AUC of `CCCC[C@H](NC(C)=O)C(=O)N[C@H]1CC(=O)NCCCC[C@@H](C(=O)N[C@@H](C(=O)N2CCC[C@@H]2C(N)=O)C(C)C)NC(=O)[C@H](Cc2c[nH]c3ccccc23)NC(=O)[C@H](CCCN=C(N)N)NC(=O)[C@@H](Cc2ccc3ccccc3c2)NC(=O)[C@@H]2CCCN2C1=O` is reported as 14100 ± 2200 ng·h/mL (Beagle dog, both sexes, plasma; subcutaneous, once daily, 0.75 mg/kg, day 28).
Under “fluorescence lifetime τ3”, `O=c1[nH]c(=O)n(C2OC(CO)C(O)C2O)cc1-n1nnc2c1CCC1C(CO)C1CC2` (mixture of isomers) is recorded as 5.7 ns (frequency-domain fluorometry; methanol).
For `COc1cc(OC)cc(C2=C3C(C)=C(I)C(/C=C/c4c[nH]c5ccccc45)=[N+]3[B-](F)(F)n3c(/C=C/c4c[nH]c5ccccc45)c(I)c(C)c32)c1`, “fluorescence quantum yield” read 0.1 (DMSO; reference: methylene blue).
The correlation volume of `C#CCOc1ccc(/C=C2\SC(=O)N(CC(=O)NCc3ccccc3)C2=O)cc1` is reported as 3260 cm³/mol (inverse Kirkwood-Buff integrals; binary solvent mixture; concentration not given, 298.15 K, mole fraction x1 0.35).
For `O=C([O-])CN1CCN(CC(=O)[O-])CCN(CC(=O)NC[C@H]2CC[C@H](C(=O)N[C@H](Cc3cnc4ccccc4c3)C(=O)NCCCC[C@H](NC(=O)N[C@@H](CCC(=O)O)C(=O)O)C(=O)O)CC2)CCN(CC(=O)[O-])CC1.[64Cu+2]`, the absorbed dose was 0.00874 mGy/MBq (PET/CT dosimetry OLINDA/EXM; healthy volunteers, eyes; up to 24 h post-injection).
`CC(C)(O)c1ncc([S@](N)(=O)=NC(=O)Nc2c3c(cc4c2CCC4)CCC3)s1` gave a half-life of 9.9 h (healthy human, fasted; oral, 100 mg single dose, spray-dried dispersion).
For `O=C(CCc1ccc(CNC(C(=O)O)C2CCCCC2)cn1)NO` (centres unmarked), the AUC(tau) was 308 ng·h/mL (human, plasma; oral, 40 mg once daily, day 1, geometric mean).
For `CCC(C)N(C)C(=O)c1nc(-c2cccc(C(F)(F)[18F])c2)c2ccccc2n1` (centres unmarked), the tracer uptake was 23 %ID/g (mouse, lung; intravenous, 3.7 MBq, 15 min).
`CC(C)CCCC(C)CCCC(C)CCOC1O[C@H](CO)[C@@H](O)[C@H](O)[C@@H]1O` (some centres unmarked) gave an interfacial tension of 4.2 mN/m (drop shape analysis; water/n-octane; solubility limit, 100 s, room temperature).
`COCCOCCOCCOCCOCCOCCOCCOCCC(=O)NCCCc1cc2cc3nc(cc4[nH]c(cc5nc(c(OC)c1[nH]2)C(=O)C5(C)C)cc4CCc1ccc(C(=O)O)cc1)CC3(C)C` gave a kic^−1 of 6 ns (water with 5% DMF; room temperature).
The concentration of `CC(C)C[C@@H](NC(=O)[C@H](NC(=O)[C@H]1CCCN1)[C@H](C)O)C(=O)N[C@H](Cc1c[nH]cn1)C(=O)N[C@@H](C(=O)N[C@H](Cc1c[nH]cn1)C(=O)N[C@H](CC(N)=O)C(=O)N[C@H](CCCNC(=N)N)C(=O)N[C@H](CCCNC(=N)N)C(=O)N[C@H](CCCNC(=N)N)C(=O)N[C@H](CCCNC(=N)N)C(=O)N[C@H](CCCNC(=N)N)C(N)=O)[C@H](C)O` is reported as 5 ng/mL (aged Beagle dogs, CSF; oral daily, 30 mg/kg, 1 h after dose, one month).
`COc1ccnc(C[S+]([O-])c2nc3cc(-n4cccc4)ccc3[nH]2)c1C` (centres unmarked) has a Vz/F of 76.3 ± 112 L/kg (male Sprague Dawley rats, plasma; oral, 5 mg/kg ilaprazole racemate).
`CN(C)C(=O)c1ccnc(N2Cc3cn(Cc4ccc(F)cc4F)nc3C2)n1` has a brain half-life of > 2.5 h (Sprague-Dawley rat, brain; dose not given).
`Cc1ccc(-c2ccc(-c3cc4sccc4o3)cn2)nc1`: “radiative decay rate constant” 0.59 ns⁻¹ (TCSPC; hexanes).
For `COc1ccc(-c2csc(N/N=C(\C)c3cc(O)cc(O)c3)n2)cc1`, “concentration after storage” read 3.74 ng/mL (LC-MS/MS; rat plasma; 3.75 ng/mL, 45 days, long-term storage at -20 °C).
Under “patients with related SAE”, `CC(C)c1cnc(-c2cc(Cl)ccc2F)cc1Nc1ccncc1C(=O)NC(CO)CO` is recorded as 0% (item: hepatic haemorrhage; human patients; oral, dose not given, grade 2).
The Tmax of `CCc1c2c(nc3ccc(O)cc13)-c1cc3c(c(=O)n1C2)COC(=O)[C@]3(O)CC` is reported as 0.98 h (human patients, plasma; intravenous, 24 mg/m^2 of parent drug).

Excerpt of the above:
`CN1CCC[C@]1(C)/C=C/S(=O)(=O)NC(=O)Nc1c2c(cc3c1CCC3)CCC2`: “Tmax after second dose, median” 2.1 h (human, plasma; oral, 50 mg twice daily, day 14, multiple ascending dose).
`CC(C)(O)c1ncc([S@](N)(=O)=NC(=O)Nc2c3c(cc4c2CCC4)CCC3)s1` gave a half-life of 9.9 h (healthy human, fasted; oral, 100 mg single dose, spray-dried dispersion).
`CN(CCCN=Cc1ccccc1[O-])CCN(C)CCCN=Cc1ccccc1[O-].[67Ga+3]`: “tissue uptake ratio” 1.13 ± 0.09 (rat; intravenous, 1 min; reference: heart over liver).
For `COc1cc(N(C)CCN(C)C)c(NC(=O)CCSCC(NC(C)=O)C(=O)O)cc1Nc1nccc(-c2cn(C3CC3)c3ccccc23)n1` (centres unmarked), the excreted amount was 1.11% (radio-HPLC; human, feces; 0 to 48 h, sample holds 45.32% dose; reference: dose).
